Measured values gathered from unrelated publications.
Lines come from different studies, so protocols differ. ± marks the error that the study gave.
Chain of UniProt O75795 (whole entry, looked up): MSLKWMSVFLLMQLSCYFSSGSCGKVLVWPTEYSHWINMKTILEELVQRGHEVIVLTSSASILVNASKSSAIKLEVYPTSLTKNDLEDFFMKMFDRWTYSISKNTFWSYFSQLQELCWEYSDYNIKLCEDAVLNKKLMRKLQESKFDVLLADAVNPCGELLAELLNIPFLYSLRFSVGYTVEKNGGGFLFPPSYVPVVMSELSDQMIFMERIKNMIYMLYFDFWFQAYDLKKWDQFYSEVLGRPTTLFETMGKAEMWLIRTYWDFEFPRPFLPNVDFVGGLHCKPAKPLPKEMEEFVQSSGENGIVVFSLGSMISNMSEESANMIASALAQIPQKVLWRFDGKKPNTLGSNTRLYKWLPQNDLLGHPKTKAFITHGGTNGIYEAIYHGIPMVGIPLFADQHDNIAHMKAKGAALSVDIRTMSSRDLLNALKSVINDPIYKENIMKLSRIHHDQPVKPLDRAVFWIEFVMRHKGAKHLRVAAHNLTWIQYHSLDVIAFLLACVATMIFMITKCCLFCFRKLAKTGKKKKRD
Chain of UniProt P08183 (whole entry, looked up): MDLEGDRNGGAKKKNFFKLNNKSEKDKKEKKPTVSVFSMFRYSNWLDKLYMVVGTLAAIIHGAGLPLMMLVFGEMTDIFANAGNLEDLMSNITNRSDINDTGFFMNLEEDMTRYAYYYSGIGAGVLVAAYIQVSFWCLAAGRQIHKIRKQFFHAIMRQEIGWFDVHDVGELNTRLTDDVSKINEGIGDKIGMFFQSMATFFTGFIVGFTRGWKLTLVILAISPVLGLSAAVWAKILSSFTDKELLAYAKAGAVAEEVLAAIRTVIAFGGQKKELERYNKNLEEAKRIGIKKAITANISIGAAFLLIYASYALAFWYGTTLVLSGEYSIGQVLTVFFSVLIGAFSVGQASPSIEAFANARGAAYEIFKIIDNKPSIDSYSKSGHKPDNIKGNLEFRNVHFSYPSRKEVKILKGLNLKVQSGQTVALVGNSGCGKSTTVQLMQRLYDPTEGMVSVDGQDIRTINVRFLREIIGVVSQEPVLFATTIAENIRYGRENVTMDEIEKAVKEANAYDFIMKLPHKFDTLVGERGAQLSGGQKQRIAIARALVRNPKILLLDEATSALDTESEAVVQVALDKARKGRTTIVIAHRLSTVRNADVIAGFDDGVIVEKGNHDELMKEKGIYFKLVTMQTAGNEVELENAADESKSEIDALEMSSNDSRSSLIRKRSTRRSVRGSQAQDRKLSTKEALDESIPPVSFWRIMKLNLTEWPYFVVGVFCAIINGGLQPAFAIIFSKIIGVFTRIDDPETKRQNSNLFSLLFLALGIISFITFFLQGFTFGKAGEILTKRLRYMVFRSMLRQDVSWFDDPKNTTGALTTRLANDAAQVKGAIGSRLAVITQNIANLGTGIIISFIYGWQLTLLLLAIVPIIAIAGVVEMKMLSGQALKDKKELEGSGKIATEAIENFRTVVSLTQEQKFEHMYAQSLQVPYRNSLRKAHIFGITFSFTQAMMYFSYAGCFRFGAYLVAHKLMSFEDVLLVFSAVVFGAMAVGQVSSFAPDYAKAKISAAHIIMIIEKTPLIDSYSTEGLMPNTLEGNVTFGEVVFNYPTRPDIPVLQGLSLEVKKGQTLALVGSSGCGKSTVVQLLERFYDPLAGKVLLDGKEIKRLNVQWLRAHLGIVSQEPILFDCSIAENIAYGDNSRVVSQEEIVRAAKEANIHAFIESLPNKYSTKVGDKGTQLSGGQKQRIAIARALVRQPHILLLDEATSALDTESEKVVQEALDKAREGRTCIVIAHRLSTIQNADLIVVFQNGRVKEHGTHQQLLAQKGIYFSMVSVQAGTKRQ
Chain of UniProt O15244 (whole entry, looked up): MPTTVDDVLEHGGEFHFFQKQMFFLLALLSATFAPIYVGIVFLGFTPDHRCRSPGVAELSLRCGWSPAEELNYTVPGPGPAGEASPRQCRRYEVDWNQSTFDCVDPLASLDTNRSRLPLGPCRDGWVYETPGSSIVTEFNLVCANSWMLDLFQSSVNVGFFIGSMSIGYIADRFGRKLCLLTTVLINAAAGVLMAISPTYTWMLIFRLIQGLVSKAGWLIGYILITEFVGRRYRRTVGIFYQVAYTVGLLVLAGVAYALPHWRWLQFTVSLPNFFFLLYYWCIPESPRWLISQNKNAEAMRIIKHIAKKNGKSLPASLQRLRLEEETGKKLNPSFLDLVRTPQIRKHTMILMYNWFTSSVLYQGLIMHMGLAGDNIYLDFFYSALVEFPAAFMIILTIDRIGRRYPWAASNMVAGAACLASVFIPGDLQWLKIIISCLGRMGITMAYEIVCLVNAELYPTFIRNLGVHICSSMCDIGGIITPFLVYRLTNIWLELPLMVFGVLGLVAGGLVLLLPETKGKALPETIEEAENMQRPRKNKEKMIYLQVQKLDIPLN
Chain of UniProt Q12809 (whole entry, looked up): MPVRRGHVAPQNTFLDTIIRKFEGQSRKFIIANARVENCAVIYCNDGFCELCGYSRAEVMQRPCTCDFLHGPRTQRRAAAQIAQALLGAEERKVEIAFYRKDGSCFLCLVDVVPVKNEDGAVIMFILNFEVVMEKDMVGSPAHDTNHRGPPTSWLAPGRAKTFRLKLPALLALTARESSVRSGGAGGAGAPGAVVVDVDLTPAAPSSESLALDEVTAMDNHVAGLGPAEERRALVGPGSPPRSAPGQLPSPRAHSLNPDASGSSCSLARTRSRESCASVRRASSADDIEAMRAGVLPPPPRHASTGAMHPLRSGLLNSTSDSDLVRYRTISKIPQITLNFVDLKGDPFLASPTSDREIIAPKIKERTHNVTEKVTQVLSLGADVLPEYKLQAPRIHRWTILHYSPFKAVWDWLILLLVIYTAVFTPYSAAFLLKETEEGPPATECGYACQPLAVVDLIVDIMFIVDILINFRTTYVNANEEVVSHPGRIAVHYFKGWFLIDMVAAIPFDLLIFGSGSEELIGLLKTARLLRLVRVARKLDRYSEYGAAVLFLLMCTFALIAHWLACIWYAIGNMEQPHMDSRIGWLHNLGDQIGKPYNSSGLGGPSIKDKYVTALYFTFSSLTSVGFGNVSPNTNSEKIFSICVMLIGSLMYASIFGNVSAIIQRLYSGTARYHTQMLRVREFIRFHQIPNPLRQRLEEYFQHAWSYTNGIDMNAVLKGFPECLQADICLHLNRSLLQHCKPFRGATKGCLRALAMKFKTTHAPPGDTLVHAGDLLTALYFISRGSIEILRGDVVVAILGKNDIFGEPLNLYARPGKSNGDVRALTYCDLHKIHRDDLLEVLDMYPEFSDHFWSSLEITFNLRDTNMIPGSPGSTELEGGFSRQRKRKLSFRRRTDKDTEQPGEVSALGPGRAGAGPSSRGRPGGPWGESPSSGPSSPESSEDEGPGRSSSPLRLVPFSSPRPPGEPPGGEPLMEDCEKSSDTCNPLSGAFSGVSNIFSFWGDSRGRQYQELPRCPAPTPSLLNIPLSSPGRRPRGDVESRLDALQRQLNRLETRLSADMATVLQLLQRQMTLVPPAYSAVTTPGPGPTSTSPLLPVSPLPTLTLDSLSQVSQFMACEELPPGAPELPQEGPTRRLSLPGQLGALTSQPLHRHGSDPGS
Chain of UniProt P08684 (whole entry, looked up): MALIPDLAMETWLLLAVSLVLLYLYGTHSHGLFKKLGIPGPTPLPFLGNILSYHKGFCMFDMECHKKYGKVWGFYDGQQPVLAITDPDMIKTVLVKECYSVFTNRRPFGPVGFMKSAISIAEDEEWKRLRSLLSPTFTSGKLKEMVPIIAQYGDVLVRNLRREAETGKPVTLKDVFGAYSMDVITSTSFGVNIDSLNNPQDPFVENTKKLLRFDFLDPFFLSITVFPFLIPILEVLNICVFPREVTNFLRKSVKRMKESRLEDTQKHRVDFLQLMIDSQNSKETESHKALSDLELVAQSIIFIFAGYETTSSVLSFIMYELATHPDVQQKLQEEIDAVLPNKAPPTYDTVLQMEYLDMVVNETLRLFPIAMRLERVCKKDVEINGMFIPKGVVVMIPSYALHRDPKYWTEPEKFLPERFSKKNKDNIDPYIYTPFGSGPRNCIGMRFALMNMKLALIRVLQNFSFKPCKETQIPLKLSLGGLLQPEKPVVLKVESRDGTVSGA
Chain of UniProt O43704 (whole entry, looked up): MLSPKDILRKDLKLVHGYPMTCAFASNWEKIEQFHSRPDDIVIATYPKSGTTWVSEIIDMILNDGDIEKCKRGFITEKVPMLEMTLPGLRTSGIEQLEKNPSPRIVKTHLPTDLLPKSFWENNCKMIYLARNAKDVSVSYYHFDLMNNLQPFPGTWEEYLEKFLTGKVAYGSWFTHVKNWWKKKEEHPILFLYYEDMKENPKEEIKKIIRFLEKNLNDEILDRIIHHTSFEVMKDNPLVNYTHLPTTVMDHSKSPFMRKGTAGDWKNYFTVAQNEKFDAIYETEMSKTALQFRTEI
Chain of UniProt P07724 (whole entry, looked up): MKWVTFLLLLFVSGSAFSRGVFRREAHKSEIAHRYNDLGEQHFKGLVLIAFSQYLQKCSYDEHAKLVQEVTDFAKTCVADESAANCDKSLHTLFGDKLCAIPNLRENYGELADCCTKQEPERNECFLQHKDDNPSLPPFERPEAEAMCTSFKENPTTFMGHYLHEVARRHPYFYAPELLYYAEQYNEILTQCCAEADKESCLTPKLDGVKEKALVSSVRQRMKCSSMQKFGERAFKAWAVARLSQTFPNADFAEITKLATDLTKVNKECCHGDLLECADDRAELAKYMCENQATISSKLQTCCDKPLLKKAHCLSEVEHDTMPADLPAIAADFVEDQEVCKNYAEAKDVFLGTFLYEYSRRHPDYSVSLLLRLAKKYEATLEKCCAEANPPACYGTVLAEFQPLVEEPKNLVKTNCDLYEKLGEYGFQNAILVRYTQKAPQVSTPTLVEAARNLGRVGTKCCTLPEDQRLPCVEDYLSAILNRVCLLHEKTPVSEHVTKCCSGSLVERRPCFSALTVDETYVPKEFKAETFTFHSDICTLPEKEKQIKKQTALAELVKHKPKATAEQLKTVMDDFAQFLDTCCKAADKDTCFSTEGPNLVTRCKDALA

Structure (SMILES)	target or system	assay	system	conditions	endpoint	value
CC[C@H]1[C@@H](O)[C@@H]2[C@H](CC[C@]3(C)[C@@H]([C@H](C)CCNC(=O)NS(=O)(=O)c4ccc(C(C)(C)C)cc4)CC[C@@H]23)[C@@]2(C)CC[C@@H](O)C[C@@H]12	Cytochrome P450 3A4 (CYP3A4, Homo sapiens, UniProt P08684)	substrate	human, plasma	10 mg, alone, study day 1	CL/F geometric mean	27.8 L/h
CCOc1c([C@H](C)n2nc(C)c3c(N)ncnc32)cc(Cl)c(F)c1[C@@H]1CNC(=O)C1	–	–	human B-cell malignancy patients	oral, 30 mg once daily, baseline QTcF ≤450 ms	observations with ΔQTcF >30 to ≤60 ms	0.9%
NS(=O)(=O)c1cccc(-c2ccc(C3CCCCC3)cc2)c1	–	hepatocyte stability	cryopreserved rat hepatocytes	1 µM	hepatic clearance	34 mL/min/kg
CCOc1ccc(-c2nc3ccc(-c4nc5ccc(N6CCN(C)CC6)cc5[nH]4)cc3[nH]2)cc1	Albumin (Mus musculus, UniProt P07724)	–	PBS	1 µM, 1 h, with: 25 mg/mL albumin	fluorescence quantum yield	0.033 ± 0.007
Cc1ccnc([18F])c1-c1cccc(N2C[C@H](N3CCN(C(=O)c4nccs4)CC3)CC2=O)c1	monoacylglycerol lipase	PET, arterial input	rhesus monkey, brain thalamus	intravenous, baseline	VT	4.5 mL/cm3
CC1(C)CCC2(CC1)N[C@@H](C(=O)N[C@@H]1CC[C@@H](C(N)=O)OC1)[C@H](c1ccnc(Cl)c1F)[C@]21C(=O)Nc2cc(Cl)ccc21	ATP-dependent translocase ABCB1 (ABCB1, Homo sapiens, UniProt P08183)	–	Caco-2	1 µM, 120 min, with: elacridar 5 µM	Papp(B-A)	3.44 ×10⁻⁶ cm/s
Cc1nc(-c2cnc(NC(C)C)n(C)c2=O)ccc1Oc1ccnc(-c2cnn(C)c2)c1	CYP3A4/5, human	inhibitor	–	30 min, preincubation without NADPH	IC50	> 100 µM
CC(=O)NCCc1c[nH]c2ccc(O)cc12	Sulfotransferase 1B1 (SULT1B1, Homo sapiens, UniProt O43704)	substrate, sulfation, purified enzyme	–	10 µM, 10 min, pH 7.0, 37 °C	specific activity	0.59 ± 0.05 nmol/min/mg
COc1cc(O)c(CC=C(C)C)c(O)c1C(=O)/C=C/c1ccc(O)cc1	CYP2D6 (human)	enzyme activity, inhibitor	human liver microsomes	10 µM, pH 7.4, with: dextromethorphan	inhibition	< 10%
CNCc1cc(-c2ccccc2F)n(S(=O)(=O)c2cccnc2)c1	CYP2D6	recombinant CYP with ISEF scaling	–	–	fraction metabolised	49.1%
O=C(Cc1cccnc1)Nc1ccc(C2CCCCC2)cc1	–	–	cryopreserved mouse hepatocytes	1 µM	hepatic clearance	65 mL/min/kg
C[C@@H](c1ccc2nccn2c1)n1nnc2ncc(-c3cnn(C)c3)nc21	CYP3A4/5 (human)	enzyme activity, inhibitor	pooled human liver microsomes	pH 7.4, with: testosterone substrate	IC50	69 µM
COc1cc(O)c(CC=C(C)C)c2c1C(=O)CC(c1ccc(O)cc1)O2 (centres unmarked)	CYP2D6 (human)	enzyme activity, inhibitor	human liver microsomes	1 µM, pH 7.4, with: dextromethorphan	inhibition	< 10%
NC/C(=C\F)COc1cccc(Cn2c(=S)[nH]c(=O)c3[nH]cnc32)c1	Solute carrier family 22 member 2 (SLC22A2, Homo sapiens, UniProt O15244)	transport, inhibitor	CHO cells expressing SLC22A2	30 µM, with: ASP+ substrate	inhibition	< 50%
Cc1oc2ccccc2c1Cc1cc(I)c(OCC(=O)O)c(I)c1	Voltage-gated inwardly rectifying potassium channel KCNH2 (KCNH2, Homo sapiens, UniProt Q12809)	ion current, two-electrode voltage clamp	Xenopus oocytes expressing hERG1	50 µM, 5 s depolarizations	half-maximal activation voltage	-42 ± 1.2 mV
O=C1OC(c2ccccc2)=N/C1=C\c1ccc(O)cc1	bovine serum albumin	fructose-induced glycation, inhibitor, item: fluorescent AGEs	–	1600 ppm, 21 days, pH 7.4	inhibition	38%
O=C(O)COc1cccc(-c2nc(Nc3ccc4[nH]ncc4c3)c3ccccc3n2)c1	UDP-glucuronosyltransferase 2B17 (UGT2B17, Homo sapiens, UniProt O75795)	enzyme activity, inhibitor	–	with: testosterone	IC50	53.7 µM

A few entries again:
Structure (SMILES)	target or system	assay	system	conditions	endpoint	value
CNCc1cc(-c2ccccc2F)n(S(=O)(=O)c2cccnc2)c1	CYP2D6	recombinant CYP with ISEF scaling	–	–	fraction metabolised	49.1%
